Assay results from different studies.
Each numbered part is a random draw from the data of one study; scales do not carry over between parts. Substitutions count along the parent as printed.

Sample 1
Target: Histone acetyltransferase KAT6A, winged helix 1, GST fusion (KAT6A, Homo sapiens, UniProt Q92794, residues 1-85)
Method: protein binding microarray
Molecule type: double-stranded DNA, one strand shown
Sample: in vitro
Tested at: not given
Notes: 8-mer, flanks averaged, mean of 2 arrays, mostly near background
Baseline: not given
Direction: higher = stronger binding
Residues (chain): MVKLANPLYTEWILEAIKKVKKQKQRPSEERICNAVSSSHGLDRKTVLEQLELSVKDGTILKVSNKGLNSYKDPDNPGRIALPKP
Sequence	E-score
ACCTGAGT	0.0206
CCGTGCAA	0.16
CGCTATGA	0.168
TCAATCGA	-0.0736
ATCTGAGC	0.0311
CAAGAGGA	-0.194
AACCCGGG	0.308
TTTTAAAA	-0.142
CACTGATA	-0.17
CATGCGGG	0.187
CTGCAGGA	-0.295
AACGGTAA	0.166
AAACGGGT	0.305
ATTCGACG	-0.00767
ATAACGCC	0.0868
GTAAAGTA	0.00439
CGGCTGTA	0.236
TAGCACAA	-0.188
CACCTCGC	0.167
ATGACGAC	-0.0343
CAGATGGA	-0.0457
GTCCTTGA	-0.0871
TCAGGGCA	-0.129
AGTACTGG	-0.133
CGACAGCA	-0.00942

Sample 2
Target: ABI1, truncated, D143A, DHFR fusion (Arabidopsis thaliana)
Method: DHFR PCA, deep sequencing
Sample: yeast
Notes: methotrexate growth selection, single substitutions
With: (+)-ABA 17 µM
Baseline: wild-type fitted maximum
Direction: higher = stronger binding
Starting sequence: PYL1, truncated, DHFR fusion (Arabidopsis thaliana); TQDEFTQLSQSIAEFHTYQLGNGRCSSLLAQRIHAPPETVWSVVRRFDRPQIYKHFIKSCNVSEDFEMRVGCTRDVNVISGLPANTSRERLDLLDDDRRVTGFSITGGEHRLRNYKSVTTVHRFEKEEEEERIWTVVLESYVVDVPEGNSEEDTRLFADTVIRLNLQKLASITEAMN
Change	relative binding score [%]
E130S	94.1
F5M	87.7
T160M	73.8
D75N	83.8
E151D	78
T135I	-6.05
E67L	65
I133C	97.4
R99A	38.9
E151Y	69.9
T101Q	-12.5
R98I	64.5
G108F	-4.6

Sample 3
Target: FOS, bZIP domain (human)
Method: DHFR protein complementation
Sample: yeast
Notes: single substitutions, most at no-binding floor
Baseline: wild-type JUN-FOS pair
Direction: higher = stronger binding
Starting sequence: JUN, bZIP domain (human); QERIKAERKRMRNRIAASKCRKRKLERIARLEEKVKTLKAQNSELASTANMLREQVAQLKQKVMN; partner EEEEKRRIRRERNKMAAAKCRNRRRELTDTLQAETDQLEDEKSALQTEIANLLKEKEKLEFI
Change	binding fitness
N42P	-1.37 natural log
A29D	-0.124 natural log
L31F	-0.346 natural log
L45I	-1.07 natural log
K36N	-0.0186 natural log
L31K	-0.716 natural log
K39F	-1.27 natural log
L45A	-1.08 natural log
E33F	-0.267 natural log
V56D	-1.47 natural log
Q41T	-0.0894 natural log
E54M	-0.183 natural log
L45W	-1.3 natural log

Sample 4
Target: CCNB2, cyclin fold, Cln2 fusion (human)
Method: yeast growth competition, sequencing
Sample: yeast
Notes: weak parent motif
Baseline: not given
Direction: higher = stronger binding
Starting sequence: RBL1 docking peptide (human); GSAKRRLFGEDPP
Change	normalised enrichment score
P13C	0.0116
A3G	0.121
E10N	0.512
P13F	0.089
A3P	-0.432
L7M	0.258
K4F	0.771
G1A	0.289
R6E	-0.0863
R6Y	-0.0362
F8Y	-0.199
K4Q	-0.31
G9P	0.201
S2G	0.112
K4D	-0.683
D11Y	0.81
R6V	-0.0554
R5K	-0.0285

Sample 5
Target: RNA binding protein fox-1 homolog 2, RRM domain, GST-SBP tag (RBFOX2, Homo sapiens, UniProt O43251-10, residues 100-194)
Method: RNA Bind-n-Seq
Molecule type: RNA
Sample: in vitro
Tested at: 365 nM
Notes: natural RNA segment, single round, ends assumed
Baseline: no-protein control
Direction: higher = stronger binding
Constant ends, left off below: GGGAGUUCUACAGUCCGACGAUC … UGGAAUUCUCGGGUGCCAA
Residues (chain): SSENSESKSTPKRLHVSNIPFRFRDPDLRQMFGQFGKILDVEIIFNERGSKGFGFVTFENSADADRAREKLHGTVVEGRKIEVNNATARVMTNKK
Sequence	RBNS enrichment (R)
UGGUCUUGAACUCCUCACCUCAGGUGAUCCACAUGACUCUGCCUCCCAAAGUGCUGCCAUUACAGGCGUGAGCCACUAGGCCUGACCUCCCCUUCCCCUUUCCUGCCCCA	0.63
CAGAUGUCCCAUUGCUCCCUGGAGCCUGUCAUGCCUGUUGGGGAUCAGGCAGCCUCCUGAUGCCAGAACACCUCAGGCAGAGCCCUACUCAGCUGUACCUGUCUGCCUGG	0.474
UUAAUCCUCACAAUAACGAAGUAUGUACUACUAUAAUUGCCAGUUUACAGACGAGAAAACUAAGGCACAAAGUUUAACUUGCCCCAAGCGACAGAGUGGAUAAGUAAAAG	0.438
UUUCUGUUCAGGGAUUAAGACCAGAAUAUCAGUGGAUUUGUUUUCCCCACCAAGUGGCCUCUUAGACUAGUCAUUAACUUAUGAUUAGCUCUAAAGAUUUCAAAUAGUGG	0.367
AGCUGAUAAAUAAGGGCUGAGGCAAGUGACUCCUUAGAUCAGCACUGACUGAACGAAAGCCAGGCAGCUGUUCUGUAAGCCUAGCCCUACCCUUCAUUUCAGUUUUAUAC	0.229
GCCACGAGAGCAUCUACAGUUUGUACUCUGGGGCUGCAGGCAUCCUGGGACGCUGUACGCAAUUCAGUGGUCUAGUCCUUUAUACCGACUCAGAUUCCUUAAGCAUGCAG	2.84
CUCAGGCUAUGUAAGUCUGAAGUACUGUUCUUCUCCACUAAGUAAUACCCAACUAAUUUCCAUUUAAAAGUAUUCCAAAAGCAGCAUUUACCAACAAUUUUUUUAGAUUG	2.12
AUACUUGUUUGAUAUUUUUUCACCUUUUGAGCCCUUUUCCCAAAGAAUUCAAUAUCAGUUUAGUAGCAACAGUACAGUUGCCAUUUAAAUUGGUUUAGUUGCUGUAUAUC	0.796

A few entries again (sample 4):
Change	normalised enrichment score
F8Y	-0.199
L7M	0.258
K4Q	-0.31
E10N	0.512
K4D	-0.683
S2G	0.112
A3P	-0.432
P13C	0.0116
R5K	-0.0285
A3G	0.121
K4F	0.771
